Measurements of several laboratories.
Each numbered part is a random draw from the data of one study; scales do not carry over between parts.

Study 1 — method: RNA Bind-n-Seq; form: RNA; medium: in vitro; tested at: 365 nM; reference: no-protein control; reading: higher = stronger binding
Target: RNA binding protein fox-1 homolog 2, RRM domain, GST-SBP tag (RBFOX2, Homo sapiens, UniProt O43251-10, residues 100-194)
Notes: natural RNA segment, single round, ends assumed
Shared flanks, not repeated: GGGAGUUCUACAGUCCGACGAUC … UGGAAUUCUCGGGUGCCAA
Construct (chain): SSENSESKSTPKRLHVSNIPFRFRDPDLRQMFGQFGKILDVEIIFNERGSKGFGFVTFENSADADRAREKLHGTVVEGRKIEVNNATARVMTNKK
| Strand | RBNS enrichment (R) |
| --- | --- |
| AGUAGUUCAGAUUCUUGCAUGAGCAAUUGACAGCAUCAGAGCACACAAUAUCAUAAGUUACAUAAAUUACACAAAGUACAUCAUAAAUUACACUACAGACACGUUAGGUA | 2.37 |
| UAUGAACGUAGUGUAGAGAAGCUGCCCUCCUCUUCCAUGGUAGCGCUCAAAGCCCUAAUGGAAGUUUAGCUCAUUUACAUUUGGAGACCCUUUUGGUUUUUUGGUUUUGG | 0.482 |
| AGGUCUCAUCACCUCACACUUCUUGACUUCACAAAAUUGUGGCCCUGAGAUCAGUACUCCUCUCUUAAGUAUUUAUUAUUAUUAUUAUUUACUUUACCUCAAGCAGACAG | 0.317 |
| AGAAGCUGUGGGGCUGCCUGCCAGGCAGGAUCAUGGCUGCCAUCAAGCCUUUUCUGGAUCCAGCCAUCAAGGACAUGUUUGUGGUGUGAUGCACACUUUUGCAAGCGUGU | 0.323 |
| UUGGUGAGGUUUGAAGUUUCAGUGUGUCUUCUACAAAAUGACAGCCACAUCUACAUUAGCUUGAGAAGCAGAGGAUUCUGUCAACAUGUGGCCAAGGGCUGUUGGACAAA | 0.711 |
| UUGCUUUGGGGGGAGGAUGUUAAAAUCCAGAACUUAGCUAGUUAGUACCUGCAAGGCAGGUGAGGGCUCUAGCAAGCCCAUGAAGUUCUCAGUGAGCCUCAUUCCCUAGA | 0.268 |
| ACACUUUGAUACUUCAAUUAUAUCGUGAAUGUUUUAUUUUGCUAAAUCAUGUGCCAUGUGUAGGCUGUUGUGUGUACACUGUGUCUAAGAGAAGAAGAAAAGAAAAAAAA | 0.561 |
| UCGUUUGGGCGUAACAACUAAGUCUCUUUCCAGAUCAGUAUAAUAAAGGAGUGAUGUGCAAUACUUUACUGUUUGUCUUGUGUCUGUGGUCUGAGAAAACCACAGCAUUC | 8.11 |
| UGGUCUCCUACUCUCUGGCCCUGUGUUUGGGAAAAAUCACUAUUAUGUCUUAAUUCUUUGCCUGUGGGUAAGUGAGAGAAUGGCUGCCAGUAGUUGUUGGAGACCUGGUA | 0.478 |
| GGAUUCUAGGGCCCAGGGACUGAUGGCCCAGGAUCUCCGUUGGCACAGAGGCCCAGCCCCAGCAUCACCUCCAGGACCCCAGCUGCUCUAAGUCCAGGACCUCUACCCUG | 0.786 |
| GACCCUACCCCUUCCAUGUCCCACCCCACUCCCACCAAAAAGUACAAAAUCAGGAUGUUUUUCACUGUCCAUUGCUUUGUGUUUUAAUAAACAAUUUGCAGUGACACUCU | 0.61 |
| UUUAAAAUCUCUGGCUUCAAAGUUUCUUGGGGAAAGGUCGGUUUACCUCACAUUUUUUGUUUCCAUUAGUAAUAUUCUAGGUACCUCACAAAAUGUAUUAUGGUGCCAUG | 0.296 |

Study 2 — method: protein binding microarray; form: double-stranded DNA, one strand shown; medium: in vitro; tested at: not given; reference: not given; reading: higher = stronger binding
Target: Histone acetyltransferase KAT6A, both winged helices, GST fusion (KAT6A, Homo sapiens, UniProt Q92794, residues 1-181)
Notes: 8-mer, flanks averaged, mean of 2 arrays, mostly near background
Target sequence (chain): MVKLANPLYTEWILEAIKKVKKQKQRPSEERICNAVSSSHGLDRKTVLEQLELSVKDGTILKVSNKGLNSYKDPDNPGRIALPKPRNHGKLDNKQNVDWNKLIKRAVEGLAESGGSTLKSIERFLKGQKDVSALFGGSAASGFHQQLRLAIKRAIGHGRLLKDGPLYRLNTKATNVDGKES
| Strand | E-score |
| --- | --- |
| GATGTCGA | 0.0212 |
| ACACGTTA | -0.178 |
| GTTCAGCA | -0.292 |
| CACAAATA | -0.00223 |
| CAACCCCC | -0.151 |
| TGCTTGAA | -0.0405 |
| CCTGCGAA | -0.145 |
| CCCGTAGC | 0.236 |
| CCCGAGGA | 0.0248 |
| GGCTTTGA | -0.0385 |
| AACCCAGA | -0.15 |
| ACGAACTC | 0.0868 |
| AATAGTGT | -0.0427 |
| AAGCGATG | 0.0657 |
| ACCAGGCG | -0.0753 |
| ATGTAGTC | -0.0584 |
| GAGGATCC | 0.0373 |
| AGTTCACC | 0.0963 |
| GTCAAGAC | -0.0117 |
| ACGCTAGC | 0.153 |
| AGTTCCTG | -0.122 |
| GAATGTTA | 0.0335 |
| CTTGAGCA | -0.119 |
| ATTACGGC | 0.229 |
| GAACCTTC | -0.0624 |

Study 3 — method: RNA Bind-n-Seq; form: RNA; medium: in vitro; tested at: not given; reference: input RNA pool; reading: higher = stronger binding
Target: RING finger protein unkempt homolog, zinc fingers 1-6, GST-SBP tag (UNK, Homo sapiens, UniProt Q9C0B0, residues 30-357)
Notes: RNA with constant flanks, human and mouse sites, ends assumed
Shared flanks, not repeated: GGGAGUUCUACAGUCCGACGAUC … CAACAGAGGAUUGAGCAUCA
Construct (chain): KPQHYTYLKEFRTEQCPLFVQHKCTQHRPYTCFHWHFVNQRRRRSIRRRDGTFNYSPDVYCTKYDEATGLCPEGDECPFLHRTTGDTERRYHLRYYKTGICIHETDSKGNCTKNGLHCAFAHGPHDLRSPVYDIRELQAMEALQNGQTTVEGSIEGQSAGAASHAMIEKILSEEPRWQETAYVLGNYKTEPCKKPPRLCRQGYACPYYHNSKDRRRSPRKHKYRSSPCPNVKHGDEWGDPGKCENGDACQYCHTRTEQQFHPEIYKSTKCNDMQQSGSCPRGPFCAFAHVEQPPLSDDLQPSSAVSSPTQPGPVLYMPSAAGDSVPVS
| Strand | bound/input enrichment [ratio] |
| --- | --- |
| GGGGAGAUUGAUGCACUGAGUAAAAGAAGCAAAGAAGCAGAGGCAGCCUUCUUGACUGUGUACAAGAGACUAAUUGAUGUUCCAGAUCCGGUACCAGCCCUGGACGUCGGGCAACAGCUG | 0.457 |
| AAUGCUGGUUGUCUGGUUUUGUUGUUUUUACAGGUGUUAUGAAAUAAUAAGAAAAUGAAGUAUUUAAAAUGUUCCAAUAAAGCGGGGUUUUGUUAUCUAAUAUAUUAUCAUGUACCUAUU | 0.26 |
| CUGUGGUGACUCAGAUAAAGGAUUUGUCGUUAUUAAUCAAAAGGGGAUUGACCCCUUUUCCUUAGAUGCCCUUGCGAAAGAAGGGAUCGUAGCUCUGCGCAGAGCCAAGAGGAGAAACAU | 0.303 |
| GCUGUCAGGCCUCAUCCACUGUGAAUCCCCCAGGUUCUUAAAACUUUAAAAUUUUUGAAUUUUAGAUAAUUAUGGAAUUAAUGCAAUGUCACACACUACUGUUAACUCUGUGGCCAAUUA | 3.72 |
| AGCAAAACCAGAGCAUCCUUAAAGUGCAGGAAGUCUUUGCCGUCGUUGUUAAGCAUGUGUUUUAGUCAGGUCAGAAACAUCAGGUACCACAGCUCCCCAGCACUCUCUUGAGGCUAGAAA | 0.2 |
| GGGGCCCCGAAGGUAGAGGAGGCAGCGCGCACGGGCUGGACCUCCUCCUACCCUGGGAAGUUGGGGCAGUUUCCCCCUGCACCUGCCUCUUCCUUAGGCCUGGCAGUGGCCCGCGAUGAG | 0.11 |
| CUGUAUUGACCAAAGCUUUCAGUUGUUCUUCAUUCUGUGCUCAGGAUUGAAAUGCUGCGUAGACGUUGUGUUGUUAGUGCUGGGCACGGAUUCUGGGACGGUGAGCUGUUGAUUUCCUAA | 0.0947 |
| CAAGAAGGUUGCUGCUUGGUUCGUUCCAAAGACGAAGAAGCUGACAGUGAUAAUUAUGAAGUUUUAUUCAACCUGGAAGAACUUAAAUUGGAUCAGCCUUUCAUUGAUUGCAUCAGAGUU | 0.222 |
| CGAGCUGGAUCCAGAGUUGCAUACAGACCAAUUUCUGCAUCAGUGUUAUCUCGACCAGAGGCUAGUAGGACUGGAGAGGGCUCUACGGUAUUUAAUGGGGCCCAGAAUGGUGUGUCUCAG | 0.14 |
| CCACAUUAGCACCCUGCCAGCCUACCAGCCUCUCUGUGCACAGCUUCUAAUGUUAUGAUCUAGCUAGAUUUUUAUUUAAAAUAUGAAAAACUGCUUUUCCCAAGACGUUUUUUAAAAGGA | 58.4 |
| GUACCUGACUUUGGGCAACAGGUAUCAAAAGCCUCAAGAGAACAGUUUCUCUGAUAAGAUUAUUUUAUACCAGGGGUCAGAAGACUCCACUCACGGGCCAAGUUUGGCCCAGUCAUUUUU | 0.522 |

Study 4 — method: protein-binding microarray; form: double-stranded DNA, one strand shown; medium: in vitro; tested at: 250 nM; notes: 60-bp whole probe; with: salmon DNA 0.4 mg/ml; reference: random background probes; reading: higher = stronger binding; shared flanks, not repeated: GCCTAGCAC … GTCTTGATTCGCTTGACGCTGCTG
Target: Interferon regulatory factor 7, full length, phosphomimetic (IRF7, Homo sapiens, UniProt Q92985, residues 1-503, S101K/S471D/S472D/S475D/S476D/S477D/S483D/S484D/S487D)
Construct (chain): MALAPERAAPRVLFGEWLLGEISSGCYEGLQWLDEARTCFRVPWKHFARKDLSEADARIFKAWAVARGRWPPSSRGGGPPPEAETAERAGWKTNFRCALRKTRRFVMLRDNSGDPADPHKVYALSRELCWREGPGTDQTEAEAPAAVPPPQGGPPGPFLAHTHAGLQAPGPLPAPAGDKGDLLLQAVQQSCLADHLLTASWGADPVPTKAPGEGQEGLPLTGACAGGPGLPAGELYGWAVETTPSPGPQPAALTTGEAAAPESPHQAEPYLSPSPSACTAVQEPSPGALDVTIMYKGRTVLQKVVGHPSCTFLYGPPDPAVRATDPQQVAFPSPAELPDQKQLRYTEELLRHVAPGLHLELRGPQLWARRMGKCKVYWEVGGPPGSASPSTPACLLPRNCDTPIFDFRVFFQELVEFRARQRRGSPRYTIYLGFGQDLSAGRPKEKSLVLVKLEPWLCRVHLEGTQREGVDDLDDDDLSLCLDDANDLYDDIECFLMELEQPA
| Strand | log fluorescence [z-score] |
| --- | --- |
| TCAATTTCCATTATTGCACTGTGCTAG | 1.76 |
| TAAAACATCATTTTTCCCTCGTGCTAG | 0.133 |
| TTGGAACTGAGTATCGATTAGTGCTAG | 0.591 |
| CTAGGTTTCGGTCTCGGTTAGTGCTAG | 8.87 |
| TTAGATCTCAGTTTCGGTTAGTGCTAG | 8.24 |
| TTAGATCGCAGTCTCGATTAGTGCTAG | 1.14 |
| ACCACTTTCCATTTCTGTTTGTGCTAG | 3.43 |
| ATGAAATGCCACACACACACGTGCTAG | -0.255 |
| TTAGGTTTCGGTTCCTGTTAGTGCTAG | 13.1 |
| GACGGTTTCGGGTATCGGGCCGTGCTA | 6.52 |
| GGTCTTTCCACTTTCTTTTGGTGCTAG | 2 |
| TTAGGTTCCCTTGTCCTTTAGTGCTAG | 0.721 |
| TTAGGTCTCGGGCTGGGTTAGTGCTAG | -0.0168 |
| TAAGGTTTCGGGTTTCGGTTAGTGCTA | 12.9 |
| GACGGACTGGTCACTGGGGACGTGCTA | -0.906 |
| TTAGGTCTCCTAATGCTTTAGTGCTAG | 0.227 |
| TTGGGTCTGGGTATTTTTCTGTGCTAG | -0.9 |
| GACGAACTGAGTTTCGACACGTGCTAG | 2.22 |
| GACGATCTCATTTTCGAGACGTGCTAG | 0.837 |
| TTAGATTTCAGAGTGGATTAGTGCTAG | -0.144 |
| TTAGGTCTCGGTCTCGGTTGGTGCTAG | 2.55 |
| GACTGTTCCCTTTTCCTGACGTGCTAG | 2.48 |
| GTGTATATGGACGTCTGAAGGTGCTAG | -0.228 |
| TTGGGACTGGACTTTCGGTTAGTGCTA | 0.0544 |
| TCATATGTGTATATATAACTGTGCTAG | 0.152 |

Excerpt of the above (study 2):
| Strand | E-score |
| --- | --- |
| AGTTCACC | 0.0963 |
| GTCAAGAC | -0.0117 |
| ACGCTAGC | 0.153 |
| AGTTCCTG | -0.122 |
| GAATGTTA | 0.0335 |
| CTTGAGCA | -0.119 |
| ATTACGGC | 0.229 |
| GAACCTTC | -0.0624 |
